# Experimental data pooled from the literature.
# Lines come from different studies, so protocols differ. ± gives the spread as reported.
# Hrh3: Histamine H3 receptor (Hrh3, Rattus norvegicus, UniProt Q9QYN8)
# Tmem97: Sigma intracellular receptor 2 (Tmem97, Rattus norvegicus, UniProt Q5U3Y7)
# NHERF1 PDZ1 domain: Na(+)/H(+) exchange regulatory cofactor NHE-RF1, PDZ1 domain (NHERF1, Homo sapiens, UniProt O14745)
# blaNDM-1: Metallo-beta-lactamase type 2 (blaNDM-1, Klebsiella pneumoniae, UniProt C7C422)
# Caspase-2 circularly permuted: Caspase-2, circularly permuted (Homo sapiens, UniProt P42575)
# Nos2: Nitric oxide synthase, inducible (Nos2, Mus musculus, UniProt P29477)
# FUT1: FUT1 (Homo sapiens, UniProt P19526)
# Caspase-2: Caspase-2 (Homo sapiens, UniProt P42575)
# TYMS: Thymidylate synthase (TYMS, Homo sapiens, UniProt P04818)
# PTR1: Pteridine reductase (PTR1, Trypanosoma brucei brucei, UniProt O76290)
# TSPO: Translocator protein (TSPO, Homo sapiens, UniProt P30536)
# SIGMAR1: Sigma non-opioid intracellular receptor 1 (SIGMAR1, Cavia porcellus, UniProt Q60492)
SMILES,target,test,conditions,Ki [µM]
Cc1n[nH]c(C)c1Cc1sc2c(c1C(=O)N1C[C@H](O)CO1)c(=O)n(C)c(=O)n2CC(C)C,"Monocarboxylate transporter 2 (Rattus norvegicus, UniProt Q63344)","transporter uptake, inhibitor, radiometric",oocytes,< 0.01
CCOc1cc(/C=N/O)ccc1OCC#CC1c2c(cc3c(c2OC)OCO3)CCN1C (centres unmarked),"Cyclin-dependent kinase 9 (CDK9, Homo sapiens, UniProt P50750)","enzyme activity, inhibitor",,2.14
COc1cc(CN2CCOCC2)ccc1OCCCN1CCN(c2cccc3sccc23)CC1,Hrh3,"ligand displacement, radioligand",cell membranes,0.0482
C/C(=N\OCCN1CCCCC1)c1cccc(C(F)(F)F)c1,Tmem97,"ligand displacement, radioligand",,0.25
CC[C@H](C)[C@H](NC(=O)[C@@H](NC(=O)[C@H](CO)NC(=O)[C@@H](NC(=O)[C@@H]1CCCN1C(=O)[C@H](Cc1c[nH]c2ccccc12)NC(=O)[C@@H](N)CS)[C@@H](C)O)[C@@H](C)CC)C(=O)O,NHERF1 PDZ1 domain,"binding to PDZ1 domain, inhibitor, fluorescence polarization",,> 5000
CC(=O)NCC1OC(OP(=O)(O)OP(=O)(O)OCC2OC(n3cnc4c(=O)[nH]c(N)nc43)C(O)C2O)C(F)C(O)C1O (centres unmarked),"Alpha-(1,6)-fucosyltransferase (FUT8, Homo sapiens, UniProt Q9BYC5)","enzyme activity, inhibitor",,68.6
CN(C)c1ccc2c(c1)C(=O)N(CCS)C2=O,blaNDM-1,"enzyme activity, inhibitor","Km 0.55 µM, together with: chromacef 25 µM",0.28 ± 0.01
COc1cc(CN2CCCC2)ccc1OCCN1CCN(c2cccc3sccc23)CC1,Hrh3,"ligand displacement, radioligand",cell membranes,0.164
CC(=O)N[C@@H](CCCNC(=N)N)C(=O)N[C@@H](C)C(=O)N[C@H](C=O)CC(=O)O,Caspase-2 circularly permuted,"enzyme activity, inhibitor","pH 6.5, 37 °C, together with: Z-VDVAD-AFC",> 100
OC[C@H]1[C@@H](O)[C@@H](O)CN1Cc1ccccc1,"Golgi alpha-mannosidase IIb (Drosophila melanogaster, UniProt Q9VF33)",Dixon plot,together with: pNP-Man 0.5 to 4 mM,76
CC(C)CC(=N)NCCC[C@H](N)C(=O)O,Nos2,"enzyme inactivation, irreversible inhibitor, Kitz-Wilson kinetics",,4010 ± 426
Nc1nc2c(ncn2[C@@H]2O[C@H](COP(=O)(O)OP(=O)(O)O[C@H]3O[C@@H](CNC(=O)Cc4ccccc4)[C@@H](O)[C@@H](O)[C@@H]3F)[C@@H](O)[C@H]2O)c(=O)[nH]1,FUT1,"enzyme activity, inhibitor",,4.1
CC(=O)N[C@H](C(=O)N[C@H](C(=O)N[C@@H](CCCCN)C(=O)N[C@H](C=O)CC(=O)O)C(C)C)[C@@H](C)O,Caspase-2,"enzyme activity, inhibitor, fluorescence",pH 6.5,7.76
Cc1cc(N)nc(C[C@@H]2CNC[C@@H]2OCCC/C=C/c2cccc(F)c2)c1,Nos2,"enzyme activity, inhibitor",pH 7.4,35.1
CN(C)c1ccc2c(c1)C(=O)N(C(C(=O)O)C(C)(C)S)C2=O (centres unmarked),blaNDM-1,"enzyme activity, inhibitor","Km 0.55 µM, together with: chromacef 25 µM",> 3
CC1(C)NC(N)=Nc2nc3cc(Cl)c(Cl)cc3n21,TYMS,inhibitor,,> 500
COc1ccc(CCCN[C@H]2CCC[C@@H]2CN[C@@H]2CCC[C@H]2CNCCCCN[C@H]2CCC[C@@H]2CN)cc1,"Amine oxidase [flavin-containing] A (MAOA, Homo sapiens, UniProt P21397)","enzyme activity, inhibitor",,500
Nc1nc2[nH]ccc2c(=O)[nH]1,PTR1,"enzyme activity, inhibitor",,> 35
CCCCCCCCCCCCCC(=O)N[C@@H](CO)C(=O)N[C@H](C(=O)N[C@@H](Cc1ccc(O)cc1)C(=O)N[C@@H](CCCNC(=N)N)C(=O)N[C@@H](CCCNC(=N)N)C(=O)NCC(=O)N[C@@H](C)C(=O)N[C@@H](CCCNC(=N)N)C(=O)N[C@@H](CCCNC(=N)N)C(=O)N[C@@H](Cc1c[nH]c2ccccc12)C(=O)N[C@@H](CCCNC(=N)N)C(=O)N[C@@H](CCCCN)C(=O)N[C@@H](CC(C)C)C(=O)O)[C@@H](C)CC,"Protein kinase C zeta type (PRKCZ, Homo sapiens, UniProt Q05513)","enzyme activity, inhibitor",pH 7.4,0.076
O[C@@H]1[C@@H](O)[C@H](O[C@@H]2OC[C@@H](O)[C@H](O)[C@H]2O)C[C@H]2O[C@@H]12,"endo-1,4-beta-xylanase (Aspergillus aculeatus, UniProt A0A1L9WG58)",covalent inhibitor,"pH 5.0, together with: 4MU-β-D-xylobioside 1 mM",44.7
CC[C@H](C)[C@H](NC(C)=O)C(=O)N[C@H](C(=O)N[C@H](C(=O)N[C@@H](CCCN)C(=O)N[C@H](C=O)CC(=O)O)C(C)C)[C@@H](C)O,Caspase-2,"enzyme activity, inhibitor, fluorescence",pH 6.5,0.724
CCC1(CC)C(=O)N(c2cccc(CN3CCc4cc5c(cc4C3)OCO5)c2)C1=O,"Dipeptidyl peptidase 9 (DPP9, Homo sapiens, UniProt Q86TI2)","enzyme activity, inhibitor, fluorescence",,0.0114
CC(Oc1cc(-c2ccccc2)nc2cnccc12)C(=O)N(C)c1ccccc1 (centres unmarked),TSPO,cell-free assay,,0.047
Cc1cc(N)nc(CC2CNCC2NCCN)c1 (racemic),Nos2,"enzyme activity, inhibitor",,58.4
N=C(N)Nc1nc2ccc(Cl)cc2[nH]1,PTR1,inhibitor,pH 3.7,21.1
"O=C(c1ccc(SCCF)cc1)C1CCN(C2Cc3ccccc3CC2O)CC1 (single isomer, unassigned; (-))",SIGMAR1,"ligand displacement, radioligand",,0.0308
CC(=O)N[C@H](C(=O)N[C@@H](CCCNC(=N)N)C(=O)N[C@H](C=O)CC(=O)O)[C@@H](C)O,Caspase-2,"enzyme activity, inhibitor, fluorescence",pH 6.5,> 100
CN(C)CCOCCOc1ccc(Cl)c(Cl)c1,SIGMAR1,"ligand displacement, radioligand",,0.001
CC(=O)N[C@@H](C)C(=O)N[C@@H](CCCCN)C(=O)N[C@H](C=O)CC(=O)O,Caspase-2,"enzyme activity, inhibitor, fluorescence",pH 6.5,> 100
CC1(C)NC(N)=Nc2nc3c(Cl)cc(Cl)cc3n21,TYMS,inhibitor,,> 500
Cc1cc(NC(=O)CCN2CCCCC2)ccc1Br,SIGMAR1,"ligand displacement, radioligand",,0.0008
O=C(O)C1CC(OS(=O)(=O)c2ccc(-c3ccc(F)cc3)cc2)CN1 (centres unmarked),"Neutral amino acid transporter B(0) (Slc1a5, Rattus norvegicus, UniProt D3ZJ25)","ion current, inhibitor, patch clamp",,40
Nc1nc2c(ncn2[C@@H]2O[C@H](COP(=O)(O)OP(=O)(O)O[C@H]3O[C@@H](CNC(=O)C(c4ccccc4)c4ccccc4)[C@@H](O)[C@@H](O)[C@@H]3F)[C@@H](O)[C@H]2O)c(=O)[nH]1,FUT1,"enzyme activity, inhibitor",,1.3
COc1cc(I)c(Cc2cc(OC)c(OC)cc2CC(=O)OC(C)(C)C)cc1OC,"Melatonin receptor type 1B (MTNR1B, Homo sapiens, UniProt P49286)","ligand displacement, radioligand",cell membranes,0.0126
"O=C(c1ccc(NCCF)cc1)C1CCN(C2Cc3ccccc3CC2O)CC1 (single isomer, unassigned; (-))",Tmem97,"ligand displacement, radioligand",,5.48
CC[C@H](C)[C@H](NC(C)=O)C(=O)N[C@H](C(=O)N[C@H](C(=O)N[C@@H](CN)C(=O)N[C@H](C=O)CC(=O)O)C(C)C)[C@@H](C)O,Caspase-2 circularly permuted,"enzyme activity, inhibitor","pH 6.5, 37 °C, together with: Z-VDVAD-AFC",3.31
CC(Oc1nc(-c2ccccc2)nc2ccccc12)C(=O)N(C)c1ccccc1 (centres unmarked),TSPO,cell-free assay,,0.002
CC(=O)N[C@H](C(=O)N[C@H](C(=O)N[C@@H](CN)C(=O)N[C@H](C=O)CC(=O)O)C(C)C)[C@@H](C)O,Caspase-2,"enzyme activity, inhibitor, fluorescence",pH 6.5,> 100
CC[C@H](C)[C@H](NC(=O)[C@H](CCCCN)NC(=O)[C@H](CO)NC(=O)[C@@H](NC(=O)[C@H](CCC(N)=O)NC(=O)[C@H](CCSC)NC(=O)[C@@H](N)CS)[C@@H](C)O)C(=O)O,NHERF1 PDZ1 domain,"binding to PDZ1 domain, inhibitor, fluorescence polarization",,914 ± 186
Nc1nc2c(ncn2[C@@H]2O[C@H](COP(=O)(O)OP(=O)(O)O[C@H]3O[C@@H](CNC(=O)C(c4ccccc4)C4CCCCC4)[C@@H](O)[C@@H](O)[C@@H]3F)[C@@H](O)[C@H]2O)c(=O)[nH]1 (some centres unmarked),FUT1,"enzyme activity, inhibitor",,11.4
CC(=O)N[C@@H](Cc1c[nH]c2ccccc12)C(=O)N[C@@H](CC(=O)O)C(=O)N[C@@H](CCCNC(=N)N)C(=O)N[C@@H](C)C(=O)N[C@H](C=O)CC(=O)O,Caspase-2 circularly permuted,"enzyme activity, inhibitor","pH 6.5, 37 °C, together with: Z-VDVAD-AFC",0.102

# For quick reference, copied from above:
SMILES,target,test,conditions,Ki [µM]
"O=C(c1ccc(NCCF)cc1)C1CCN(C2Cc3ccccc3CC2O)CC1 (single isomer, unassigned; (-))",Tmem97,"ligand displacement, radioligand",,5.48
CC[C@H](C)[C@H](NC(C)=O)C(=O)N[C@H](C(=O)N[C@H](C(=O)N[C@@H](CN)C(=O)N[C@H](C=O)CC(=O)O)C(C)C)[C@@H](C)O,Caspase-2 circularly permuted,"enzyme activity, inhibitor","pH 6.5, 37 °C, together with: Z-VDVAD-AFC",3.31
CC(Oc1nc(-c2ccccc2)nc2ccccc12)C(=O)N(C)c1ccccc1 (centres unmarked),TSPO,cell-free assay,,0.002
CC(=O)N[C@H](C(=O)N[C@H](C(=O)N[C@@H](CN)C(=O)N[C@H](C=O)CC(=O)O)C(C)C)[C@@H](C)O,Caspase-2,"enzyme activity, inhibitor, fluorescence",pH 6.5,> 100
CC[C@H](C)[C@H](NC(=O)[C@H](CCCCN)NC(=O)[C@H](CO)NC(=O)[C@@H](NC(=O)[C@H](CCC(N)=O)NC(=O)[C@H](CCSC)NC(=O)[C@@H](N)CS)[C@@H](C)O)C(=O)O,NHERF1 PDZ1 domain,"binding to PDZ1 domain, inhibitor, fluorescence polarization",,914 ± 186
Nc1nc2c(ncn2[C@@H]2O[C@H](COP(=O)(O)OP(=O)(O)O[C@H]3O[C@@H](CNC(=O)C(c4ccccc4)C4CCCCC4)[C@@H](O)[C@@H](O)[C@@H]3F)[C@@H](O)[C@H]2O)c(=O)[nH]1 (some centres unmarked),FUT1,"enzyme activity, inhibitor",,11.4
CC(=O)N[C@@H](Cc1c[nH]c2ccccc12)C(=O)N[C@@H](CC(=O)O)C(=O)N[C@@H](CCCNC(=N)N)C(=O)N[C@@H](C)C(=O)N[C@H](C=O)CC(=O)O,Caspase-2 circularly permuted,"enzyme activity, inhibitor","pH 6.5, 37 °C, together with: Z-VDVAD-AFC",0.102
